Experimental data pooled from the literature.
Each line is one published result; not all experiments were run side by side. Values joined by “and” are separate records of one study, mostly repeats; a detail may differ. ± marks the error that the study gave.
Chain of UniProt P08684 (whole entry, looked up): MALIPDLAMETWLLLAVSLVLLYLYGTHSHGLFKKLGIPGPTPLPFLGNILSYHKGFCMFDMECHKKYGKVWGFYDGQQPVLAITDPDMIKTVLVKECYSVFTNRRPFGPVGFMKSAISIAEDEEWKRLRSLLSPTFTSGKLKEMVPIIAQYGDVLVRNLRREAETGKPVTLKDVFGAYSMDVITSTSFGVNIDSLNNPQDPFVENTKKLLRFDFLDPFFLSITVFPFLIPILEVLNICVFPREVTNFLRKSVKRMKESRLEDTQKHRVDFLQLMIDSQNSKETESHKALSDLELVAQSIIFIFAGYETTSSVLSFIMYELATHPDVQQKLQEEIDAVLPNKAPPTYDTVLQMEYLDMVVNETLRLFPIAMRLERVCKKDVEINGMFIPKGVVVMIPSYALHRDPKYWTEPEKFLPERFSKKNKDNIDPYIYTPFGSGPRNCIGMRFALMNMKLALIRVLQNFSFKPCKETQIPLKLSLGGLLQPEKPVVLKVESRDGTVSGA

COc1cc(O)c(CC=C(C)C)c(O)c1C(=O)/C=C/c1ccc(O)cc1 — result for “fasting plasma insulin”: 1.08 ng/mL (male Tac:SW germ-free mice, high-fat diet; in diet, 60 mg/kg/day, 10 weeks).
CCn1c(=O)c(-c2cc[nH]n2)cc2c(C)nc(N)nc21: “necrotic/apoptotic bodies score” 0 (enterovirus A71; suckling mouse, EV71-infected, spleen; 0.25 mg/kg; direction not given).
The inhibition of C#Cc1cc(-c2cc(Nc3nc(N[C@@H](C)c4ccc(F)cn4)ncc3Cl)n[nH]2)ccc1C=O is reported as -12.8% (PKC beta II kinase, human; enzyme activity; 0.2 µM).
For c1coc(-c2n[nH]cc2-c2ccnc3ccccc23)c1, “log2 fold change” read -0.1 (MCK1 (Candida albicans); kinase binding, MIB/MS competition; Candida albicans lysate; 1 µM; relative to: DMSO).
For CC(C)NCC(O)c1ccc(O)c(O)c1 (stereo not drawn), the sarcomere length was 1.49 µm (ventricular cardiomyocytes, C57BL/6 mouse; dose not given, 0.524 s).
Cc1cc(O)cc(C)c1C[C@H](NC(=O)[C@@H]1CCCN1C(=O)[C@H](CCCNC(=N)N)NC(=O)[C@H](CCCNC(=N)N)N(C)C(=O)CNC(=O)[C@@H](CO)NC(=O)CNC(=O)[C@H](Cc1cn(CCNC(=O)[C@H](CC(C)C)NC(=O)[C@H](CC(C)C)NC(=O)C2OC2C(=O)NO)nn1)NC(=O)CN1CCN(CC(=O)O)CCN(CC(=O)O)CCN(CC(=O)O)CC1)C(=O)N[C@H](C(=O)N[C@@H](CC(C)C)C(=O)O)C(C)(C)C (mixture of isomers) [lutetium-177 labelled] has a fraction unbound of 0.84 (human).
CC(C)NCC(O)c1ccc(NS(C)(=O)=O)cc1 (racemic) gave a QTc interval of 324 ± 0.7 ms (male Hartley guinea pig, anaesthetized; intravenous, 10 mg/kg, baseline before infusion).
CC(Nc1nc(N2CCCC2)nc2ccccc12)c1ccccc1 (stereo not drawn): “cells with nuclear reporter” 96.9% (transportin-1/2; FUS nuclear import, high content imaging; HeLa Kyoto reporter; 3.17 µM, 2 h).
The tissue uptake of CC(C)C[C@H](NC(=O)C[C@H](O)[C@H](CC(C)C)NC(=O)[C@H](Cc1c[nH]cn1)NC(=O)CNC(=O)[C@@H](NC(=O)[C@H](C)NC(=O)[C@H](Cc1c[nH]c2ccccc12)NC(=O)[C@H](CCC(N)=O)NC(=O)[C@@H](Cc1ccccc1)NC(=O)COCCOCCNC(=O)CCC(C(=O)O)N1CCN(CC(=O)O)CCN(CC(=O)O)CCN(CC(=O)O)CC1)C(C)C)C(N)=O (stereo partly drawn) [lutetium-177 labelled] is reported as 0.19 ± 0.08 %ID/g (female BALB/c nu/nu mice, spleen; intravenous, 100 pmol, 2 h, together with: PA 300 µg).
For Cn1cc(-c2ccc(-c3cncc(Cl)c3N3CCC4(CCNC4=O)CC3)cc2)cn1, “log2 fold change” read 3.11 (COLO 205; gene expression, microarray, refers to: HSPA5 (GRP78) mRNA; concentration not given, 6 h; relative to: untreated cells).
Under “percent change from baseline”, C[C@H]1C[C@H]2CSC(N)=N[C@@]2(c2nc(NC(=O)c3ccc(OC(F)F)cn3)cs2)CO1 is recorded as -90.3% (refers to: Aβ1-40; healthy adults, plasma; 540 mg single dose, 48 h post-dose; relative to: placebo).
For Cc1cc(O)cc(C)c1C[C@H](NC(=O)[C@@H]1CCCN1C(=O)[C@H](CCCNC(=N)N)NC(=O)[C@H](CCCNC(=N)N)N(C)C(=O)CNC(=O)[C@@H](CO)NC(=O)CNC(=O)[C@H](Cc1cn(CCNC(=O)[C@H](CCCNC(=N)N)NC(=O)[C@H](CC(C)C)NC(=O)C2OC2C(=O)O)nn1)NC(=O)CN1CCN(CC(=O)O)CCN(CC(=O)O)CCN(CC(=O)O)CC1)C(=O)N[C@H](C(=O)N[C@@H](CC(C)C)C(=O)O)C(C)(C)C (mixture of isomers), the fraction unbound was 0.924 (human).
For NCCCOc1cc(NC(=O)c2cccc(C(=O)Nc3cc(OCCCN)c4ccccc4n3)n2)nc2ccccc12, the ΔTm was 31.8 ± 0.9 K (c-kit1 G-quadruplex DNA; FRET melting; 1 µM, pH 7.4, together with: 60 mM potassium).
O=C(O)CNC(=O)Cc1ccccc1 gave a sarcomere length of 1.72 µm (ventricular cardiomyocytes, C57BL/6 mouse; dose not given, 0.056 s).
CC[C@H]1[C@@H](O)[C@@H]2[C@H](CC[C@]3(C)[C@@H]([C@H](C)CCNC(=O)NS(=O)(=O)c4ccc(C(C)(C)C)cc4)CC[C@@H]23)[C@@]2(C)CC[C@@H](O)C[C@@H]12 gave an AUC(0-inf) of 1.54 µg·h/mL (Cytochrome P450 3A4 (CYP3A4, Homo sapiens, UniProt P08684); human, plasma; dose not given, geometric mean, together with: fluconazole).
N#Cc1ccc2c(c1)[C@H]1CCCN(C(=O)c3ccc4[nH]cnc4c3)[C@H]1C2 has a plasma level of 7.93 nmol/L (refers to: androstenedione; human male, Phase II trial; oral, 20 mg once daily, last treatment, HPA axis, mean).
The plaque area of CC(C)n1ncc2c(C(=O)NCC3(C)CNC3)cc(C3CC3)nc21 is reported as 95% and 105% (enterovirus A71; Tainan/4643/1998; 0.001 µM).
Under “log2 fold change”, Oc1ccccc1-c1n[nH]cc1-c1ccnc2ccccc12 is recorded as 0.13 (PKH3 (Candida albicans); kinase binding, MIB/MS competition; Candida albicans lysate; 1 µM; relative to: DMSO).
For N#Cc1ccc2c(-c3ccncc3)c(-c3ccc(F)cc3)nn2c1, “log2 fold change” read 0.158 (kinase binding, competitor, MIB/MS competition, refers to: AKL1; Candida albicans cell lysate; 100 nM; relative to: DMSO).
The AUC(0-168 h) of Cc1cc(Nc2ccc(S(F)(F)(F)(F)F)cc2)n2nc(C(C)(F)F)nc2n1 is reported as 340 µg·h/mL (Plasmodium falciparum; LC-MS/MS; malaria patients, plasma; oral, 250 mg).
For NC(=O)c1cnc2[nH]ccc2c1N[C@@H]1[C@@H]2CC3C[C@H]1C[C@@](O)(C3)C2, “change from baseline” read -1.4% (flow cytometry, refers to: CD4+ central memory T cells; Japanese healthy subjects, peripheral blood; oral, 100 mg twice daily, day 4).

Excerpt of the above:
CC[C@H]1[C@@H](O)[C@@H]2[C@H](CC[C@]3(C)[C@@H]([C@H](C)CCNC(=O)NS(=O)(=O)c4ccc(C(C)(C)C)cc4)CC[C@@H]23)[C@@]2(C)CC[C@@H](O)C[C@@H]12 gave an AUC(0-inf) of 1.54 µg·h/mL (Cytochrome P450 3A4 (CYP3A4, Homo sapiens, UniProt P08684); human, plasma; dose not given, geometric mean, together with: fluconazole).
Cc1cc(O)cc(C)c1C[C@H](NC(=O)[C@@H]1CCCN1C(=O)[C@H](CCCNC(=N)N)NC(=O)[C@H](CCCNC(=N)N)N(C)C(=O)CNC(=O)[C@@H](CO)NC(=O)CNC(=O)[C@H](Cc1cn(CCNC(=O)[C@H](CC(C)C)NC(=O)[C@H](CC(C)C)NC(=O)C2OC2C(=O)NO)nn1)NC(=O)CN1CCN(CC(=O)O)CCN(CC(=O)O)CCN(CC(=O)O)CC1)C(=O)N[C@H](C(=O)N[C@@H](CC(C)C)C(=O)O)C(C)(C)C (mixture of isomers) [lutetium-177 labelled] has a fraction unbound of 0.84 (human).
